# Measured values gathered from unrelated publications.
# Every numbered part comes from another study and shows a few of its results, in no order.

# Sample 1 — technique: RNAcompete; molecule type: RNA; medium: in vitro; concentration: 20 nM; setting: 7-mer, probes averaged, single round; baseline: mean of 7-mers; direction: higher = stronger binding
# Target: PABPC1L2, full length, GST fusion (mouse, UniProt A0ABA7IW68)
# Residues (chain): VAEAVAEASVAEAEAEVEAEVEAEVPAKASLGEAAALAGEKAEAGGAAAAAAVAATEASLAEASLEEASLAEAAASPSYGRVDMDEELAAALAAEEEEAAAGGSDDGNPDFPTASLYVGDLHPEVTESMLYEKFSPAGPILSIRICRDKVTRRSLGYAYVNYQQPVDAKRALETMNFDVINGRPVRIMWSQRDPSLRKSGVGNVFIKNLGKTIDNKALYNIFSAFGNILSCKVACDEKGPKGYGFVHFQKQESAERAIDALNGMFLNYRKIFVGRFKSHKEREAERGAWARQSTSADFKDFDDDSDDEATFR
Oligonucleotide,7-mer Z-score
CCAUGUA,-0.0971
AUCACCU,-0.206
CACACAA,0.171
AUCUAGC,-0.153
AAUUAUG,0.0587
UCCAACG,-0.106
ACCGCAC,-0.162
GAAAUCC,0.066
CUCGAAU,-0.128
UCUACUU,-0.248
AUGGGGC,0.372
GUAUUCG,-0.13
UACAGUC,-0.22
AACUAGU,-0.115
GUUAUGA,-0.124
CGUAACU,-0.251
ACCCCUA,-0.338
CUUCACA,-0.159
AAGAAGG,0.693
GUGUGUU,-0.432
AGCAGGC,0.229
AACCAUG,-0.00652
UUAGGCA,0.184
AUUGAUA,0.00617
AUCGUAG,-0.206

# Sample 2 — technique: RNA Bind-n-Seq; molecule type: RNA; medium: in vitro; concentration: not given; baseline: input RNA pool; direction: higher = stronger binding
# Target: RING finger protein unkempt homolog, zinc fingers 1-6, GST-SBP tag (UNK, Homo sapiens, UniProt Q9C0B0, residues 30-357)
# UniProt Q9C0B0, sequence (30-357, looked up): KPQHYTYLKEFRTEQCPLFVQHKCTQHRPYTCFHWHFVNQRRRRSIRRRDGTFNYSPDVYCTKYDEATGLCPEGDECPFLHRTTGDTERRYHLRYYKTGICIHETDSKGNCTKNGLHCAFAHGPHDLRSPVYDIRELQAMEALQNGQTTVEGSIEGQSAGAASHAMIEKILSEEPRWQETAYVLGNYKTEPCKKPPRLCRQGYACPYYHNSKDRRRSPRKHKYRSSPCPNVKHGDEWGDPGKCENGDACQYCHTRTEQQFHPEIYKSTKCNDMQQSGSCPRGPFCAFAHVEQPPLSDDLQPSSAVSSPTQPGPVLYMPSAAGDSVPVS
# Setting: RNA with constant flanks, human and mouse sites, ends assumed
Oligonucleotide,bound/input enrichment
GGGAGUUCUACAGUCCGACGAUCAAUCAAGAAGUAGAAUUCGGCAGAAAUCGAGAGAGGCUUCAGUUUUUUAAGUGGAGUUCAAGAGUUUUUAAGAAUGUGGCAGUGAUCCCUCCUGGAACUGGAAUGGCUCAUCAAAUAAACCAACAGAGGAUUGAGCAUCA,0.345 ratio
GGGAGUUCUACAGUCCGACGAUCCCACAUUUUAUUUGUCCAUUUAUCAUUUGAUGGACAUUUGGGUUUUUUCCACCUUUUGAUUAUAAUAAUGCUGCUGUGAACAUUUAUGUAAAAGUUUUUUGUAUGGGUGUAUGUUUUCACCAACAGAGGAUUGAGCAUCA,0.673 ratio
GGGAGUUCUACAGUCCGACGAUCUUGGAACAGGCUGAUGAAGACUUAGCUACCGGCUUGGCAUUGAUUGACCUGGGUCAGAGUAUAGAUAUGAAACUUUUCCCUAAAGGAACUGUAUUUACAGGAAAAUGUGAAACAUCUGGUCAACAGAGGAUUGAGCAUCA,0.134 ratio
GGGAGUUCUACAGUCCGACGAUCCACCACCCCAGUCCGGAUCAUUUCUGGCCCCGCUUCCCGGACGCUCUGCGCCCCUUCGUUCCUUGGGAUCAAUUGGAAAACGAGGAUUCCAGCGUGCACAUUUCCCCCCGGCAGAAGCGACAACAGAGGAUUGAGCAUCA,0.215 ratio
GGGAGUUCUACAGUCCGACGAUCCGAUGUCCAGUCACUGUGUGUGGAGAUGUACAUGGGCAAUUUCAUGAUCUCAUGGAACUCUUUAGAAUUGGUGGUAAAUCACCAGAUACAAAUUACCUGUUUAUGGGAGACUAUGUGGACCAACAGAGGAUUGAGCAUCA,2.72 ratio
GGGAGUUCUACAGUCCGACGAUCGACACAAAAAACAAGGAUGGCGUGCUGGUGGAUGAAUUUGGACUGCCGCAGAUUCCCGCUUCGUAGACUUACAACAUUCCAGCACGUGAUGUGAAACAACAAGAGAAGUAUUCUGGGACUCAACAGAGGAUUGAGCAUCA,0.848 ratio
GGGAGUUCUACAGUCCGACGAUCGGGCCUCUGUUCAAUACCGACUAUGACAUCCUUAAAAGCAAUUUGCAGAACUGCAGCAAGUUUAGUGCCAUACAGUGUGCAGCUGCAGUCCCCAGAGCUCCUGCAGAAUCCCCAUCUUCCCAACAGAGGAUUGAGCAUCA,0.44 ratio
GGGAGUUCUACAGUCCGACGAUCGAGUGGCAUAAAGUUUUUGAUCUUCCAGAGUCACUUGGUGGCAUUCGAGCCUGUACACUCACAGUUUUUCCACCUGAAGAAAACCCUGGGUCACCUUCUAGAGAAUCACCUCUUUCAGCACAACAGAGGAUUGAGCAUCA,0.295 ratio
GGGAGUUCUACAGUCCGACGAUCGAAAUUAUUAAAAACAAGGGGGGUGGGUAAUAAAUGUAUAUAACAUUAAAUAAUGUAACGUAGGUGUAGAUUCCCAAAUGCAUUUGGAUGUACAGAUCGACUACAGAGUACUUUUUUCUUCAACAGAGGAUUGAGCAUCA,1.29 ratio
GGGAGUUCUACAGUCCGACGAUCAUCACCAAGCUAGACUUGAUGGAUGAAGGCACAGACGCCAGGGAUGUCCUGGAAAACAAGCUACUGCCCUUGAGAAGAGGCUAUAUCGGCGUGGUUAACCGAAGCCAGAAAGACAUCGAGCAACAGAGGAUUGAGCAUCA,0.116 ratio
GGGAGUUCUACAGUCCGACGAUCCUUCAUUUUACACUAAAGCAUAAUGUCAUGAAGUUUCAUAUCUGUACAGAUUAUUUAAAUCAUAGAAAUGAAAAAUGUUCUCUGCUUGCUACCAAAGGACAAACUCUUGGAAACGGACAUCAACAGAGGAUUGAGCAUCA,0.48 ratio

# Sample 3 — technique: universal PBM; molecule type: double-stranded DNA, one strand shown; medium: in vitro; concentration: 600 nM; direction: higher = stronger binding
# Target: Sal-like protein 4, full length isoform A (SALL4, Homo sapiens, UniProt Q9UJQ4, residues 1-1053)
# UniProt Q9UJQ4, sequence (whole entry, looked up): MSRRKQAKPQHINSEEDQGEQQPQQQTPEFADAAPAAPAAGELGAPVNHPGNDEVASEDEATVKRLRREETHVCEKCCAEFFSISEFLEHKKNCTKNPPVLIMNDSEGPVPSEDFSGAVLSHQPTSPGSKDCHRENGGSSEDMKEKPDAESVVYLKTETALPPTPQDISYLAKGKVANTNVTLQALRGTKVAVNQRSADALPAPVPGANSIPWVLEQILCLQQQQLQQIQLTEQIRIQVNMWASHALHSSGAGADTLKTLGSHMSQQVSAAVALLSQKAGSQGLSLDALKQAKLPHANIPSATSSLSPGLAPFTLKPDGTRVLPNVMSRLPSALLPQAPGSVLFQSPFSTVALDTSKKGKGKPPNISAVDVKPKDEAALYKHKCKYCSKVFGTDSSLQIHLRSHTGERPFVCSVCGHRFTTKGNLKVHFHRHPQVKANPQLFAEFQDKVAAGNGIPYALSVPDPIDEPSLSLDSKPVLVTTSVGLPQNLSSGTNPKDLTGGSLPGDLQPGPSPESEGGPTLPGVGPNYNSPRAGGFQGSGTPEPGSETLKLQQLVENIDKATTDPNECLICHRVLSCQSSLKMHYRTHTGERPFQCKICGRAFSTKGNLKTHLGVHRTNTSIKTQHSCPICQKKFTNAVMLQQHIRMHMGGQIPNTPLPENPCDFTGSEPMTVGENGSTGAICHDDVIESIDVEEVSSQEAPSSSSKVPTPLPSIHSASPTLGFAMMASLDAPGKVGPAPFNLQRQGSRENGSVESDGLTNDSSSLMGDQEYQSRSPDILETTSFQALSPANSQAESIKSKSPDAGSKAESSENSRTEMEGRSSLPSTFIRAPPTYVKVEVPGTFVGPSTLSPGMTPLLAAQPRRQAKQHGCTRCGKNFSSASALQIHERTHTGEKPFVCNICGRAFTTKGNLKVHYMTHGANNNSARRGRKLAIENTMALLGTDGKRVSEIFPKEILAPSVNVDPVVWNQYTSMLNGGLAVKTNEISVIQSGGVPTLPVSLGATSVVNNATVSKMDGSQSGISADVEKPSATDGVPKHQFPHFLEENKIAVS
# Setting: 8-mer, flanks averaged, mean of replicates
Oligonucleotide,E-score
CCTCGCCC,-0.212
ACTGTCCT,-0.0434
CGGGTTGA,-0.299
ACTATTCT,0.104
ATATAAAG,0.322
CGGGATAA,-0.0043
AGGCGTCC,-0.302
AATTCGTA,0.289
GCCCTCCC,-0.333
AGCGGATC,-0.219
CTTGTACC,-0.00556
GAAGCTGC,-0.232
CGGCTGCA,-0.289
CGGCAGTC,-0.151
AACAATAG,0.219
TATTAGCA,0.246
ATTCTTAA,0.193

# Sample 4 — organism: Saccharomyces cerevisiae; effect on: mating pheromone growth arrest; molecule type: peptide; strain: no Cln2 overexpression; setting: peptide tiling library; direction: direction not given
# Technique: pooled competitive growth deep sequencing
Sequence,enrichment score
AKRSLGFLPQPVPL,-0.862
GPVKLEFDVSDGAT,0.147
KRCATPVIIDEILPSK,-0.19
GTPKRCLDLSNLSSGE,0.226
VKRLNFRSEEME,-0.845
EPRNLLSLFEDTLDPT,0.0286
RQVRRDLFAF,-0.498
RTEALEQGGLPKKLIF,0.475
YLYLLLTQSLWCRV,-0.392

# Sample 5 — technique: aptamer microarray, sandwich; molecule type: DNA with 2'F-ANA; medium: in vitro; concentration: 200 nM; added: Cy3 exosite-II aptamer, 400 nM; direction: higher = stronger binding; oligonucleotide: GGTTGGTGTGGTTGG
# Target: Prothrombin, mature alpha-thrombin (F2, Homo sapiens, UniProt P00734)
# Setting: whole 15-mer aptamer, many near background
Modification,mean fluorescence intensity
2'F-ANA at 2 5 10 13 15,44.7 a.u.
2'F-ANA at 1 2 3 4 6 7 11 15,127 a.u.
2'F-ANA at 1 2 3 4 5 6 7 9 12 13 14,45.6 a.u.
2'F-ANA at 1 3 5 7 8 10 11 14 15,144 a.u.
2'F-ANA at 1 5 8 10 12 13,67.2 a.u.
2'F-ANA at 1 3 4 5 6 8 9 10 12 14,47 a.u.
2'F-ANA at 2 4 5 6 7 14,53.7 a.u.
2'F-ANA at 2 3 7 8 9 11 12 13 15,818 a.u.
2'F-ANA at 3 5 8 12 14,63.5 a.u.
2'F-ANA at 1 2 5 10 11 15,45 a.u.
2'F-ANA at 6 8 11 13 14,222 a.u.
2'F-ANA at 3 4 7 9 12,1040 a.u.
2'F-ANA at 2 3 5 6 9 11 13 15,65.3 a.u.
2'F-ANA at 1 2 3 4 6 7 9 11 12 14,64.7 a.u.
2'F-ANA at 6 7 9 10 11 12 15,190 a.u.
2'F-ANA at 1 3 6 9 10 11 12 14,61.5 a.u.
2'F-ANA at 4 6 7 8 10 11 14 15,57.1 a.u.
2'F-ANA at 4 5 6 7 8 9 10 12 15,50.2 a.u.
2'F-ANA at 5 9 11 12 14 15,46.3 a.u.
2'F-ANA at 1 2 3 5 7 8 10 11 12 13 14,56.7 a.u.
2'F-ANA at 2 3 6 8 11 13 15,569 a.u.
2'F-ANA at 1 3 4 5 6 8 9 10 12 13,51.6 a.u.
2'F-ANA at 3 4 7 9 11 12 13,692 a.u.
2'F-ANA at 1 2 3 5 9 10 11 12 14,46.3 a.u.
2'F-ANA at 3 7 8 12 15,1580 a.u.

# A few entries again (sample 3):
Oligonucleotide,E-score
CTTGTACC,-0.00556
ACTGTCCT,-0.0434
AGCGGATC,-0.219
ACTATTCT,0.104
AATTCGTA,0.289
ATTCTTAA,0.193
GAAGCTGC,-0.232
TATTAGCA,0.246
AGGCGTCC,-0.302
CGGGTTGA,-0.299
